Results gathered from unrelated publications.
Numbers after ± are the reported error.
alkA: alkA 1-282 (Escherichia coli, UniProt P04395)
Chain of UniProt P04395 (whole entry, looked up): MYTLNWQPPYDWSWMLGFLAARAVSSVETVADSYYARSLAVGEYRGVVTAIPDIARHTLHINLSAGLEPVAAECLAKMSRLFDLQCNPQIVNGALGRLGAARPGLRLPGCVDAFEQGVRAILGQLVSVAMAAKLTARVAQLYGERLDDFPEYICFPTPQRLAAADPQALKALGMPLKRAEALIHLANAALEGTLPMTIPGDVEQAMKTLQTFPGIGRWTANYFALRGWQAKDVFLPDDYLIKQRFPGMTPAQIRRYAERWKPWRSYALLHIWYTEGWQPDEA
T1: MBNL1 ZF3-4 duplicated; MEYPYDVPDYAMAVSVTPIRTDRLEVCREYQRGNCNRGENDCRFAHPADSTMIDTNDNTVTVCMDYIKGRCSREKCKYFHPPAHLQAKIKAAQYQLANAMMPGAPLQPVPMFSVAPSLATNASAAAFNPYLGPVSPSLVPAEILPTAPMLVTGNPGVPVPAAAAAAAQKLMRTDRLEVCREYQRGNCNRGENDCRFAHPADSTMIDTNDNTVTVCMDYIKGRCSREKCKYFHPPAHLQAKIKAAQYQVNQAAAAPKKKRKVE
Chain of UniProt P19525 (whole entry, unmodified, looked up): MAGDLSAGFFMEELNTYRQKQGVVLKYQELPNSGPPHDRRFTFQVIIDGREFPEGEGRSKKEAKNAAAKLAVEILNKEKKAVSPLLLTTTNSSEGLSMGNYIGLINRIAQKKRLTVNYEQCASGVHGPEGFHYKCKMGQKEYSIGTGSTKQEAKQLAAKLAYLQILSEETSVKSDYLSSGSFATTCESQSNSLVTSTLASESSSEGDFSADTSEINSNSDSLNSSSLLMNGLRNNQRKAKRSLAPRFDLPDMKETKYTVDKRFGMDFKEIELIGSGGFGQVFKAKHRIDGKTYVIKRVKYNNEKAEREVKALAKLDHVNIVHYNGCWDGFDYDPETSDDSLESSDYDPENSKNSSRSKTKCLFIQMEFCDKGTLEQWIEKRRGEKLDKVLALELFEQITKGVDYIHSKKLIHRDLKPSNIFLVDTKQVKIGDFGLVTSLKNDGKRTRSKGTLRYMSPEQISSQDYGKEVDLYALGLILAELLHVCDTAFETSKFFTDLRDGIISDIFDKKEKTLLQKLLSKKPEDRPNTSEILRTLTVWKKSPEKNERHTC
Chain of UniProt Q96T21 (whole entry, looked up): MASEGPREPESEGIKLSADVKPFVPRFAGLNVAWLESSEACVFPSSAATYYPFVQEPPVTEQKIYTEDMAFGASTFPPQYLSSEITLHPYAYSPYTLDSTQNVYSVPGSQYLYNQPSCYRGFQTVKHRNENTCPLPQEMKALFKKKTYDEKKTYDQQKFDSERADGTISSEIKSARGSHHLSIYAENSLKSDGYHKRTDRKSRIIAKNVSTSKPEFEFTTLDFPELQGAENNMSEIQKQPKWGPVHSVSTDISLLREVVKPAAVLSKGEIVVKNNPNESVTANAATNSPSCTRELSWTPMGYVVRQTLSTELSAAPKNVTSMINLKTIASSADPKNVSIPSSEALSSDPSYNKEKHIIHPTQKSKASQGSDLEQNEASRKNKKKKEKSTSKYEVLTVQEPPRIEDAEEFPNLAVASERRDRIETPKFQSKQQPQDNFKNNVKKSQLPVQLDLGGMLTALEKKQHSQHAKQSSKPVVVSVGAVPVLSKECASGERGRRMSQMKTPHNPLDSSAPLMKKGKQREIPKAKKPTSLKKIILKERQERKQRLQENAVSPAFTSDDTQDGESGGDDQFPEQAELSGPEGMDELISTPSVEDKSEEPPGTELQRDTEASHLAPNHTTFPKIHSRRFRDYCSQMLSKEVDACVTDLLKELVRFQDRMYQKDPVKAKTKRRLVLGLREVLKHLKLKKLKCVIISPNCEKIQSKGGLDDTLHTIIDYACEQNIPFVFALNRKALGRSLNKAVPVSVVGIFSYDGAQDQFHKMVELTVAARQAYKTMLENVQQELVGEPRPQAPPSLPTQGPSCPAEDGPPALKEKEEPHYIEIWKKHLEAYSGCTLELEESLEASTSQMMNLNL
Chain of UniProt Q9D0M2 (whole entry, looked up): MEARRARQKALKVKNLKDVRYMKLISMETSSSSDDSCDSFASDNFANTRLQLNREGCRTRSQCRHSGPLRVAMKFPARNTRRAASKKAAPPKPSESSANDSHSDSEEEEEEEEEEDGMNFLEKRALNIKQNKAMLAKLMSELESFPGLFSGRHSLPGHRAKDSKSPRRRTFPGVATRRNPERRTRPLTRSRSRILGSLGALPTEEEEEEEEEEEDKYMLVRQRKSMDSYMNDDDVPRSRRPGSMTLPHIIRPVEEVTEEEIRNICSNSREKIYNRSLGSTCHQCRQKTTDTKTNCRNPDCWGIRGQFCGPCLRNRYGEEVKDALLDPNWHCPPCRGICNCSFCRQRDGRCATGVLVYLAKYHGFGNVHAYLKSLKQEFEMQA

| Oligonucleotide | target | assay | test system | conditions | scale | endpoint | value |
| --- | --- | --- | --- | --- | --- | --- | --- |
| CGGGGCGGGCCGGGGGCGGGGT (G-quadruplex DNA; parallel in K+) | APEX1 full length assumed D210A (Homo sapiens, UniProt P27695) | fluorescence anisotropy | folded DNA | K+ 50 mM, added: Mg2+ 10 mM |  | Kd | 55 ± 4 nM |
| GAAACGGGACGGCACCUCUUUUAACCCUUGAAGUCACUGCCCGUUUCGAGAGUUUCUCAACUCGAAUAACUAAAGCCAACGUGAACUUUUGCGGAUCUCCAGGAUCCGCUUUUUUUU (structured RNA) | hfq full length assumed K31W (Escherichia coli, UniProt P0A6X3) | tryptophan fluorescence quenching | folded RNA |  |  | binding | binds |
| RNA CAACGCCCUGUCGGUGAGAAACCGUUUGCA / DNA TGCAAACGGTTTCTCACCGACAGGGCGTTG (DNA:RNA hybrid) | Cdca7 241-382 (Mus musculus, UniProt Q9D0M2) | EMSA | DNA-RNA hybrid |  |  | binding | no binding |
| RNA 1 GGAGGAUGUUAAUUGGCGUGUCUUGUCUGCAACGGUAUUC / RNA 2 GAAUACCGUUGCAGACAAGACACGCCAAUUAACAUCCUCC (dsRNA) | EIF2AK2 1-185 F41W/Q110A (Homo sapiens, UniProt P19525) | tryptophan fluorescence anisotropy | double-stranded RNA | 1 µM |  | binding | binds |
| AGGGGAACGATATTAGTACATACTCTTTTATATGGGGG (dsDNA) | ribK full length assumed (UniProt H2C8H2) | fluorescence polarization | double-stranded DNA, one strand shown | added: CTP 100 µM |  | K1/2 | 105 nM |
| UGGAGCCUUCCACCCCGGCACUCAUGACGGUCUGCCUGAAAACCAGCCCGCUGGUGGGGCAGUCCCGAGGACCUGGCGUGCAUCCCCGCCGGAGGAAGGUCCA (structured RNA) | SECISBP2 (Homo sapiens, UniProt Q96T21) | EMSA | folded RNA |  |  | Kd | 320 ± 5 nM |
| DNA 1 GATCATACTAATACTCGGCCCAAAG / DNA 2 CTTTCCGCCGAGTATTAGTATGATC (dsDNA; 25-mer duplex) | alkA | competition | double-stranded DNA |  |  | Ki | 38 ± 5 nM |
| CTGACCTCATCATTTTCTTAAAAACTGACACTTACAATGTGGTCAGTT (dsDNA) | protein holo K360Q/R364Q (Bacillus clausii, UniProt A0A268NVG2) | fluorescence titration | double-stranded DNA, one strand shown | Mg2+ 5 mM, apparent, Hill fit, added: PLP |  | Kd | 33.8 ± 2.6 nM |
| CGATAGCATCCTACCTTCTCTCCAT (dsDNA; 25-mer duplex) | alkA | competition | double-stranded DNA, one strand shown | 37 °C |  | Ki | 33 ± 16 nM |
| UUUUGCUUUUUUUUUUUGCUUUU (ssRNA) | T1, MBNL1 ZF3-4 duplicated | EMSA | RNA |  | reference: MBNL-AB, higher = weaker binding | relative binding | 6 fold |
| CTGACCTCATCATCTCCCTACACACTGACACTTACAATGTGGTCAGTT (dsDNA) | protein holo K126Q/K129Q (Bacillus clausii, UniProt A0A268NVG2) | fluorescence titration | double-stranded DNA, one strand shown | Mg2+ 5 mM, apparent, Hill fit, added: PLP |  | Kd | 61.3 ± 3 nM |

A few entries again:
| Oligonucleotide | target | assay | test system | conditions | scale | endpoint | value |
| --- | --- | --- | --- | --- | --- | --- | --- |
| CTGACCTCATCATTTTCTTAAAAACTGACACTTACAATGTGGTCAGTT (dsDNA) | protein holo K360Q/R364Q (Bacillus clausii, UniProt A0A268NVG2) | fluorescence titration | double-stranded DNA, one strand shown | Mg2+ 5 mM, apparent, Hill fit, added: PLP |  | Kd | 33.8 ± 2.6 nM |
